# Experimental data gathered from unrelated publications.
# Numbered parts are unrelated; each lists some results of a single study. Changes are numbered by the printed parent chain.

# Study 1
# Target: JUN, bZIP domain (human)
# Method: DHFR protein complementation
# Sample: yeast
# Notes: single substitutions, most at no-binding floor
# Baseline: wild-type JUN-FOS pair
# Reading: higher = stronger binding
# Starting sequence: JUN, bZIP domain (human); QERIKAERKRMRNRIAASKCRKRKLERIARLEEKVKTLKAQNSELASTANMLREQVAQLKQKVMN; partner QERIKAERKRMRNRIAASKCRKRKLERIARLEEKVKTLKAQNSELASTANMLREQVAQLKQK
Substitution,binding fitness [natural log]
Q41L,-0.316
R30W,-0.292
E44Y,-0.488
E33I,-0.529
E44K,-0.371
M51F,-0.273
T48W,-0.817
K36H,-0.465

# Study 2
# Target: RNA binding protein fox-1 homolog 2, RRM domain, GST-SBP tag (RBFOX2, Homo sapiens, UniProt O43251-10, residues 100-194)
# Method: RNA Bind-n-Seq
# Molecule type: RNA
# Sample: in vitro
# Tested at: 365 nM
# Notes: natural RNA segment, single round, ends assumed
# Baseline: no-protein control
# Reading: higher = stronger binding
# Residues (chain): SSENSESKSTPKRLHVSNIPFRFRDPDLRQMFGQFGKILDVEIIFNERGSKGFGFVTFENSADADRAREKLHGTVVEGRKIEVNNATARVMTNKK
Sequence,RBNS enrichment (R)
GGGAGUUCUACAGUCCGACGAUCUGGCUUUGAAUGAUUACUAUUUGGUCUGUGUGCUACUAACAGAUAAUAAACGAUCACCAGGAAACUUCCUGAUGCCUUCUACUGUCUAGAGCAGCAGUUCUCAACCUUUGUGGAAUUCUCGGGUGCCAA,0.553
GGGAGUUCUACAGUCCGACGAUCUUGCUGAGACUCGGGGUACCGUUCUGCUGACCCAGCUCCCUUUAGUCACGUUUGCUUGGCUCUGGUACCAAAUAGUUGGGAUUACCGAAGAGUCCCCUUCCUUGCGUGUCUGGAAUUCUCGGGUGCCAA,0.331
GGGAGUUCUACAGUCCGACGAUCACACUGGCUAUUGGUGGUGACUACUUUCUCAAGCCCUGGCUCCCCCAAGACAGUCUUUCCUAACUGCCUCCCUACUUGGAGUAGUCACAUACUCAAGUGCACACCACAGCUGGAAUUCUCGGGUGCCAA,0.334
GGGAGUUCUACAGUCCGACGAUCAUCUAAUGGGACCAGCUUGUGAAGUUUAUAGCCUUAAAGAAAUCUCUGUGCUAAGUUUUAGAACAGUUUAGAACCAUGCAGGGAUGCCGAGAGUCUGGAGUUAGCCCAGUUGGAAUUCUCGGGUGCCAA,0.773
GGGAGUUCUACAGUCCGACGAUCCAGCUACCUGGGAGGCUGAGGAAGGAGGAUCGCUUGAGCCCAGGAGGUGGAGGCUGCAGUGAGCCAAGAUUGUACCACUGCACUCCAGCCUGGGUGACAGAGCAAGACUCUGGAAUUCUCGGGUGCCAA,0.409
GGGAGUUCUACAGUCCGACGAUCAAACUACUUUAGAGCCUCUUUUUCUCCCAACUCAUAUUUUUGAUAGGAAAAACAGAAAACCCAUCCAGUUCUUCAGAAAUUGCUUUCUAGGCAUUAAUACUACUUUACUAUGGAAUUCUCGGGUGCCAA,0.684
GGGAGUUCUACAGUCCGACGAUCCCGCCCCAGCGCUUCACAGCCGCUUCUGGCUUUGCAAGGUGUCUGUCUCGGCCAGUGCCGUGGCCUGCUGGGAAGGGUCAGAGUCCUCACUGUCCCCCGUCUGUCCAGCAUGGAAUUCUCGGGUGCCAA,1.46
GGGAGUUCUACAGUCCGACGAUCUAUCUGGAAAAUUCCAGAGCUAUUAUUUACUCCUUACCAAGGGAAGUUACUUCUUGUAAAAACUUUUAAGCCAUUUAUCAACAAGUUCUUGUUGACUCAGGGCAUAAUGAUGGAAUUCUCGGGUGCCAA,0.371
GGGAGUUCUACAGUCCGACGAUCACUUUUCUACUUUCAAGAACUAUGUAUCUCUUUUAUCCCACCACAACAUUUAUCUGUAGCUAAGAUAUUUUCUCUUAAUAAUUACCUCCCAAAUGCUUUUAGUGAACCGAUGGAAUUCUCGGGUGCCAA,1.68

# Study 3
# Target: Histone acetyltransferase KAT6A, both winged helices, GST fusion (KAT6A, Homo sapiens, UniProt Q92794, residues 1-181)
# Method: protein binding microarray
# Molecule type: double-stranded DNA, one strand shown
# Sample: in vitro
# Tested at: not given
# Notes: 8-mer, flanks averaged, mean of 2 arrays, mostly near background
# Baseline: not given
# Reading: higher = stronger binding
# Residues (chain): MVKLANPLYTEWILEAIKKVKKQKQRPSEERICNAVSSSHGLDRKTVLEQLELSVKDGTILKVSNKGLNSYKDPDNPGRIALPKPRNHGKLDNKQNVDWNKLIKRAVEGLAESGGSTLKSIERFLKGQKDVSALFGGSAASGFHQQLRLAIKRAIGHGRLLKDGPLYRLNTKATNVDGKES
Sequence,E-score
GATTACTA,-0.0309
CTATAGCC,0.0203
AATCCGCT,0.184
AGCAGCCT,-0.245
CTAAATCA,-0.145
CACCAGCA,-0.274
AAGGCACC,-0.0128
CGACGCAG,0.186
ATATAGAG,0.000715
CGCGCACA,0.324
CAATCACA,-0.124
GATCTGCC,-0.0146
CAGAGATC,-0.196

# Mixed results
Substance,target,assay,system,setting,scale,endpoint,result
"PhoQ, residues 284 288 289 292 302 303 SSCCRF","PhoP, residues 12 14 15 18 19 FWNTL (Escherichia coli, UniProt P23836)","Sort-seq, measured: YFP reporter",E. coli,"PhoQ-PhoP variant library, together with: 10 µM Mg2+","baseline: high Mg2+ state, higher = stronger signaling",fold induction,12.5

# Some of these lines once more (mixed results):
Substance,target,assay,system,setting,scale,endpoint,result
"PhoQ, residues 284 288 289 292 302 303 SSCCRF","PhoP, residues 12 14 15 18 19 FWNTL (Escherichia coli, UniProt P23836)","Sort-seq, measured: YFP reporter",E. coli,"PhoQ-PhoP variant library, together with: 10 µM Mg2+","baseline: high Mg2+ state, higher = stronger signaling",fold induction,12.5
